# Measured values gathered from unrelated publications.
# Compare with care: the assays were run in different laboratories.
Structure (SMILES),target,assay,test system,conditions,inhibition
COc1cc(/C=C/C(=O)N2CCN(CC(=O)N3CCCC3)CC2)cc(OC)c1OC.O=C(O)/C=C\C(=O)O,Nedd8-cullin1 interaction,"neddylation, AlphaScreen",,100 µM,26.6%
C#Cc1cc(-c2cc(Nc3nc(N[C@@H](C)c4ccc(F)cn4)ncc3Cl)n[nH]2)ccc1C=O,"EGFR D770_N771insNPG, human",enzyme activity,,0.2 µM,4.08%
CCCc1cc(C)[nH]c(=O)c1CNC(=O)c1cc(-c2ccc(N3CCN(C(C)C)CC3)nc2)cc2c1cnn2C(C)C,PDSP panel target,"radioligand binding, PDSP panel",,10000 nM,≤ 50%
COc1cc(-c2cc(-c3ccc(N4CCNCC4)cc3)cnc2C)cc(OC)c1OC,human NDRG1,"enzyme activity, inhibitor",,0.1 µM,1%
C[C@H]1O[C@@H](O[C@H]2[C@@H](O)C[C@H](O[C@H]3[C@@H](O)C[C@H](O[C@H]4CC[C@@]5(C)[C@H](CC[C@@H]6[C@@H]5C[C@@H](O)[C@]5(C)[C@@H](C7=CC(=O)OC7)CC[C@]65O)C4)O[C@@H]3C)O[C@@H]2C)C[C@H](O)[C@@H]1O,Nedd8-cullin1 interaction,"neddylation, AlphaScreen",,100 µM,24.5%
O=C(Nc1ccc(CN2CCOCC2)c(C(F)(F)F)c1)c1ccc(C#Cc2cccc3cnccc23)cn1,kinase panel (ten kinases),"enzyme activity, inhibitor",,"10 µM, together with: ATP 100 µM",< 30%
CC[C@@H]1[C@H](F)C(=O)N[C@@H]1COc1nccc2cc(C(N)=O)c(OC)cc12,"Aurora A, B and C","ATP-site probe binding, inhibitor, ActivX ATP probe profiling",THP-1 cell lysate,"0.2 mM, ATP loop site",-1%
COC(=O)C1=C(C)NC(C)=C(C(=O)OC(C)(C)CN(C)CCC(c2ccccc2)c2ccccc2)C1c1cccc([N+](=O)[O-])c1 (stereo not drawn),Nedd8-cullin1 interaction,"neddylation, AlphaScreen",,100 µM,26.2%
CCN1CCN(Cc2ccc(NC(=O)c3ccc(C)c(Oc4ccnc5[nH]ccc45)c3)cc2C(F)(F)F)CC1,ABL and ARG human,KiNativ,A-375 live cells,0.5 µM,> 98%

# A few entries again:
Structure (SMILES),target,assay,test system,conditions,inhibition
CCCc1cc(C)[nH]c(=O)c1CNC(=O)c1cc(-c2ccc(N3CCN(C(C)C)CC3)nc2)cc2c1cnn2C(C)C,PDSP panel target,"radioligand binding, PDSP panel",,10000 nM,≤ 50%
